Measurements from different studies.
Protocols differ between the studies behind these lines. Values joined by “and” are separate records of one study, mostly repeats; a detail may differ. pIC50: −log10 of the molar value. Values after ≈ are worked out from the molar mass of the structure shown.
HLA class I histocompatibility antigen, A alpha chain allele A*24:02: HLA class I histocompatibility antigen, A alpha chain, allele A*24:02 (Homo sapiens, UniProt P04439)

SMILES	tested on	assay	test system	conditions	scale	measurement	result
N=C(N)NCCC[C@H](NC(=O)[C@H](Cc1c[nH]c2ccccc12)NC(=O)[C@H](CCCNC(=N)N)NC(=O)[C@H](Cc1c[nH]c2ccccc12)NC(=O)[C@H](Cc1c[nH]c2ccccc12)NC(=O)[C@H](Cc1c[nH]c2ccccc12)NC(=O)[C@H](CCCNC(=N)N)NC(=O)[C@H](Cc1c[nH]c2ccccc12)NC(=O)[C@@H](N)CCCNC(=N)N)C(=O)N[C@@H](Cc1ccccc1)C(N)=O	Candida albicans	broth microdilution	CGMCC 2.209, RPMI 1640-MOPS	48 h, 30 °C, added: FeCl3 4 µM	–	MIC	8 µM
CCCCCCCCCCCCN(C)C(=O)CP(=O)(O)O	Bacillus cereus	–	1056 strains	–	–	MIC90	0.024 µg/mL (≈ 0.0747 µM)
COc1cnc(OC)n2nc(NS(=O)(=O)c3c(OCC(F)F)cccc3C(F)(F)F)nc12	Eclipta prostrata	fresh weight	–	150 g ai/ha, post-emergence treatment	–	inhibition	96.6% and 98.2% and 98%
CCCC(CCC)C(=O)Nc1ccccc1O	Artemia franciscana	LC-MS/MS metabolomics, measured: 1-aminocyclopropanecarboxylic acid	larvae	concentration not given, 48 h	baseline: vehicle	log2 fold change	0.011
Cn1cc(Cl)c2c(Oc3c(F)cc(Nc4cc(Cl)nc(N)n4)cc3F)ccnc21	murine hepatitis virus	viral replication, nanoluciferase reporter	DBT	1 µM, 10 h	baseline: DMSO vehicle	inhibition	-8%
COc1cc2c(Oc3ccc4[nH]c(C)cc4c3F)ccnc2cc1OCC1(N)CC1	–	–	paediatric refractory sarcoma patients	8 mg	–	abdominal distension incidence	0%
CCCC(CCC)C(=O)O	Artemia franciscana	LC-MS/MS metabolomics, measured: 1-aminocyclopropanecarboxylic acid	larvae	concentration not given, 24 h, LC1 concentration	baseline: vehicle	fold change	1.95
CC[C@H](CC[C@@H](C)[C@H]1CC[C@H]2[C@@H]3CCC4=CC(=O)CC[C@]4(C)[C@H]3CC[C@]12C)C(C)C	Leishmania mexicana	–	mouse C57BL/6 bone marrow-derived macrophages, intracellular amastigotes	concentration not given, 48 h	–	antileishmanial activity	inactive
COc1ccc(S(=O)(=O)N(CCO)c2ccccc2CN(C)C/C=C/c2ccc(Cl)cc2)cc1	murine hepatitis virus	viral replication, nanoluciferase reporter	DBT	1 µM	baseline: DMSO vehicle	inhibition	20%
NS(=O)(=O)c1ccc(N/N=C2\C(=O)Nc3ccc(C(=O)NCCc4c[nH]cn4)cc32)cc1	Aspergillus fumigatus	–	–	20 µM	baseline: untreated	metabolic activity	≥ 80%
CC(C)C[C@@H]1NC(=O)[C@H](CC(C)C)NC(=O)[C@H](Cc2c[nH]c3ccccc23)NC(=O)[C@H](CO)NC(=O)[C@H](Cc2c[nH]c3ccccc23)NC(=O)[C@@H]2CCCN2C(=O)[C@H](CC(C)C)NC(=O)[C@H](Cc2c[nH]cn2)NC(=O)[C@@H]2CCCN2C(=O)[C@H](CC(N)=O)NC(=O)[C@H](C)NC(=O)[C@H](Cc2ccc(O)cc2)NC(=O)[C@H](CS)NC(=O)[C@H](CCCCNC(=O)CN2CCN(CC(=O)O)CCN(CC(=O)O)CCN(CC(=O)O)CC2)NC1=O [lutetium-177 labelled]	–	–	Balb/c mouse, female, 4T1 tumour, spleen	intravenous, 3.7 MBq, 72 h	–	tissue uptake	0.01 %ID
NC(=O)c1ccc(N(C(N)=O)c2c(F)cccc2F)nc1-c1ccc(F)cc1F	murine hepatitis virus	viral replication, nanoluciferase reporter	DBT	1 µM, 10 h	baseline: DMSO vehicle	inhibition	15%
COc1cc2ccc3oc([N+](=O)[O-])cc3c2cc1OC	Enterobacter cloacae	REMA	–	–	–	MIC90	> 32 µg/mL
C[C@@H](O)[C@H]1C(=O)N2C(C(=O)O)=C(SCCN=CN)C[C@H]12	Klebsiella pneumoniae	–	KPC-2 parental strain K4(2731)	–	–	MIC	64 µg/mL
CC1(C)CC(=O)c2c(C(F)(F)F)nn(-c3ccc(C(N)=O)c(N[C@H]4CC[C@H](O)CC4)c3)c2C1	human alphaherpesvirus 1	–	primary human fibroblasts, K26 GFP	–	baseline: CC50 over IC50	selectivity index	> 1200
CC(=O)N1CCN(c2ccc(OCC3COC(Cn4ccnc4)(c4ccc(Cl)cc4Cl)O3)cc2)CC1 (stereo not drawn)	Candida albicans	broth microdilution	CGMCC 2.209, RPMI 1640-MOPS	48 h, 30 °C	–	MIC	8 µM
CSCC[C@H](NC(=O)[C@@H](N)CCCCN)C(=O)N[C@@H](Cc1c[nH]c2ccccc12)C(=O)NCC(=O)N[C@@H](CCCCN)C(=O)N1CCC[C@H]1C(=O)N[C@@H](CCSC)C(=O)N[C@H](C(=O)N[C@@H](Cc1ccccc1)C(=O)O)[C@@H](C)O	HLA class I histocompatibility antigen, A alpha chain allele A*24:02	binding	–	–	–	pIC50	5.76
Cc1cc(C)c(-n2ccn3nc(-c4cccnc4)cc23)cc1NC(=O)c1cc(C#N)cc(S(F)(F)(F)(F)F)c1	murine hepatitis virus	viral replication, nanoluciferase reporter	DBT	1 µM, 10 h	baseline: DMSO vehicle	inhibition	42%

SMILES	tested on	assay	test system	conditions	scale	measurement	result
CC(=O)NC[C@H]1CN(c2ccc(N3CCOCC3)c(F)c2)C(=O)O1	Enterococcus faecalis and Enterococcus faecium	–	–	–	–	MIC90	2 µg/mL (≈ 5.93 µM)
CS(=O)(=O)CCCn1c(Cn2c(=O)n(CC(F)(F)F)c3ccncc32)cc2cc(Cl)ccc21	respiratory syncytial virus	RT-qPCR	hospitalized infants 1-24 months, nasal swab	oral, 9, 6 or 5 mg/kg daily, day 5, high dose by age cohort	baseline: placebo	LS mean difference vs placebo	-0.34 log10 copies/mL
COc1ccc2ccc3oc([N+](=O)[O-])cc3c2c1Br	Enterobacter cloacae	REMA	–	–	–	MIC90	0.25 µg/mL (≈ 0.776 µM)
NC1(c2ccc(-c3nc4ccn5c(=O)[nH]nc5c4cc3-c3ccccc3)cc2)CCC1	murine hepatitis virus	viral replication, nanoluciferase reporter	DBT	1 µM, 10 h	baseline: DMSO vehicle	inhibition	70%
N=C(N)NCCC[C@H](NC(=O)CN)C(=O)N[C@@H](Cc1c[nH]c2ccccc12)C(=O)N[C@@H](CCCNC(=N)N)C(=O)N[C@@H](Cc1c[nH]c2ccccc12)C(=O)N[C@@H](Cc1c[nH]c2ccccc12)C(=O)N[C@@H](Cc1c[nH]c2ccccc12)C(=O)N[C@@H](CCCNC(=N)N)C(=O)N[C@@H](Cc1c[nH]c2ccccc12)C(=O)N[C@@H](CCCNC(=N)N)C(=O)N[C@@H](Cc1c[nH]c2ccccc12)C(N)=O	Candida parapsilosis	broth microdilution	CGMCC 2.399, RPMI 1640-MOPS	48 h, 30 °C	–	MIC	8 µM
C[C@H](c1ccnc(Nc2nc3ccc(-c4cc(N(C)C)ncn4)cc3[nH]2)c1)N1CCN(C(=O)CC(F)(F)F)CC1	murine hepatitis virus	viral replication, nanoluciferase reporter	DBT	1 µM, 10 h	baseline: DMSO vehicle	inhibition	23%
CNCC(=O)N[C@@H](CO)C(=O)N[C@H]1[C@H](O)[C@@H](O)[C@H](n2ccc(N)nc2=O)O[C@@H]1C(N)=O	Tobacco mosaic virus	in vivo	–	500 µg/mL	–	inactivation activity	78% and 86%
CCOc1cc(N2CCC(O)CC2)ccc1Nc1ncc2c(n1)N(C)c1ccccc1C(=O)N2C	murine hepatitis virus	viral replication, nanoluciferase reporter	DBT	1 µM	baseline: DMSO vehicle	inhibition	9%
Nc1ccn([C@@H]2O[C@H](CO)[C@@H](O)C2(F)F)c(=O)n1	human alphaherpesvirus 1	–	K26 GFP, 3D skin equivalent, submerged	–	baseline: CC50 over IC50	selectivity index	> 52.6
Nc1ncnc2c1ncn2[C@@H]1O[C@@H]2COP(=O)(O)O[C@H]3[C@@H](O)[C@H](n4cnc5c(=O)[nH]cnc54)O[C@@H]3COP(=O)(O)O[C@H]2[C@H]1O	Zika virus	RNA sequencing, measured: degradation, collagen, R-HSA-1442490	HFF-1 cells	concentration not given, downregulated pathway	baseline: ZIKV-infected untreated cells	fold enrichment	8.91
COC(=O)C1=C(C)NC(C)=C(C(=O)OC(C)(C)CN(C)CCC(c2ccccc2)c2ccccc2)C1c1cccc([N+](=O)[O-])c1 (stereo not drawn)	Aspergillus fumigatus	–	–	3.95 µM, 48 h, conidia, added: caspofungin 0.2 µg/mL	baseline: caspofungin alone	CFU relative	0.655 and 0.845
COC(=O)c1ccc2c(ccc3oc([N+](=O)[O-])cc32)c1	Enterobacter cloacae	REMA	–	–	–	MIC90	> 32 µg/mL
CC(C)C[C@H](NC(=O)[C@H](CCCNC(=N)N)NC(=O)[C@H](Cc1c[nH]c2ccccc12)NC(=O)[C@H](CCCNC(=N)N)NC(=O)[C@H](Cc1c[nH]c2ccccc12)NC(=O)[C@H](Cc1c[nH]c2ccccc12)NC(=O)[C@H](Cc1c[nH]c2ccccc12)NC(=O)[C@H](CCCNC(=N)N)NC(=O)[C@H](Cc1c[nH]c2ccccc12)NC(=O)[C@H](CCCNC(=N)N)NC(=O)CN)C(N)=O	Candida albicans	broth microdilution	56452, RPMI 1640-MOPS	48 h, 30 °C	–	MIC	8 µM
CC[C@H](C)[C@H](NC(=O)[C@@H]1CCCN1C(=O)[C@H](CC(N)=O)NC(=O)[C@H](CC(C)C)NC(=O)[C@@H](N)CCCNC(=N)N)C(=O)NCC(=O)N[C@@H](Cc1ccc(O)cc1)C(=O)N[C@@H](CO)C(=O)N[C@@H](Cc1ccc(O)cc1)C(=O)O	HLA class I histocompatibility antigen, A alpha chain allele A*24:02	binding	–	–	–	pIC50	4.26
CNc1nc(-c2ccc3c(N)n[nH]c3c2)cc(N2C[C@@H](C(=O)NC3CCCCC3)CC[C@H]2C)n1	murine hepatitis virus	viral replication, nanoluciferase reporter	DBT	1 µM, 10 h	baseline: DMSO vehicle	inhibition	35%
Cc1c([N+](=O)[O-])oc2ccc3ccccc3c12	Enterobacter cloacae	REMA	–	–	–	MIC90	4 µg/mL (≈ 17.6 µM)
COc1cc2c(Nc3cccc(NC(=O)c4ccccc4)c3)ncnc2cc1OCCCN1CCOCC1	Aspergillus fumigatus	–	–	20 µM	baseline: untreated	metabolic activity	≥ 80%
Cc1c2c(nn1C)CSCc1cc(n(C)n1)CSc1cc(c3ccccc3c1)OCCCc1c(C(=O)O)n(C)c3c-2c(Cl)ccc13	Staphylococcus aureus	label-free quantitative proteomics, measured: SAOUHSC_01832 protein	SA113	concentration not given	baseline: untreated control	fold change	136
